Measurements of several laboratories.
Parts stem from different laboratories: compare values within a part only.
UniProt P28335, sequence (whole entry, looked up): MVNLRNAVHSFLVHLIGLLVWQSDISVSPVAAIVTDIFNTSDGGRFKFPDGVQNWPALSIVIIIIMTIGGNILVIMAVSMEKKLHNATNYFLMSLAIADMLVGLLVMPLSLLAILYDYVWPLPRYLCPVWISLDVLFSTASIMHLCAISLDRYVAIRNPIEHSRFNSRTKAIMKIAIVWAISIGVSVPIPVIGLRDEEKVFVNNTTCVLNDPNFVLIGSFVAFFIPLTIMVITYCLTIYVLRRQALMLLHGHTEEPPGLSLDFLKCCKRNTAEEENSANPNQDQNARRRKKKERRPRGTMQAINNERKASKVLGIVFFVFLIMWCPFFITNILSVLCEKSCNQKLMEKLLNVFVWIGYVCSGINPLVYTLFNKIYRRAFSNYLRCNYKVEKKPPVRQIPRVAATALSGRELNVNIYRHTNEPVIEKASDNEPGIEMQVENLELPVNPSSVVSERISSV
UniProt Q13422, sequence (whole entry, looked up): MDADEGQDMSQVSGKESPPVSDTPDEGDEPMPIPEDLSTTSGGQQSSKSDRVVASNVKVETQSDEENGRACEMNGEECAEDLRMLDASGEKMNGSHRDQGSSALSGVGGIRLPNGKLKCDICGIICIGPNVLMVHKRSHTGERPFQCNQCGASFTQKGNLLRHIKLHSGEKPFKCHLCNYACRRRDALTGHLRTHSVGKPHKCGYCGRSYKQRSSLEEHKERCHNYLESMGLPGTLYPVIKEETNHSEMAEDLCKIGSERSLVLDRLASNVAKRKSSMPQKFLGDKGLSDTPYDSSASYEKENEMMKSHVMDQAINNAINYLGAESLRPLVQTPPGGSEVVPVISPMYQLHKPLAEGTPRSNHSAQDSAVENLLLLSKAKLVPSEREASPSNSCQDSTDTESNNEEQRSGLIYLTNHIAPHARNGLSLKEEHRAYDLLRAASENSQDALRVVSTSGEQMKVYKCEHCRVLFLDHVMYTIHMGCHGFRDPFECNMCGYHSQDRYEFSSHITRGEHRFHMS
UniProt P48729, sequence (whole entry, looked up): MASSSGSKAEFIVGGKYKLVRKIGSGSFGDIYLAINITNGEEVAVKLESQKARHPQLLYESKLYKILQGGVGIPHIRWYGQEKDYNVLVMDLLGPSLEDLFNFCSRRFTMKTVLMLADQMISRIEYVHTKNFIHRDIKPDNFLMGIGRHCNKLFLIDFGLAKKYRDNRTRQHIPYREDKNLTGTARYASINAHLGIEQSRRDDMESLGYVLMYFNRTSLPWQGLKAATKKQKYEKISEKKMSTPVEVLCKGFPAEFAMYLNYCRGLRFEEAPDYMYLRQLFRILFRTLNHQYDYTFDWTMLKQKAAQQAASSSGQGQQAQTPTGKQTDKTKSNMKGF
UniProt P11229, sequence (whole entry, looked up): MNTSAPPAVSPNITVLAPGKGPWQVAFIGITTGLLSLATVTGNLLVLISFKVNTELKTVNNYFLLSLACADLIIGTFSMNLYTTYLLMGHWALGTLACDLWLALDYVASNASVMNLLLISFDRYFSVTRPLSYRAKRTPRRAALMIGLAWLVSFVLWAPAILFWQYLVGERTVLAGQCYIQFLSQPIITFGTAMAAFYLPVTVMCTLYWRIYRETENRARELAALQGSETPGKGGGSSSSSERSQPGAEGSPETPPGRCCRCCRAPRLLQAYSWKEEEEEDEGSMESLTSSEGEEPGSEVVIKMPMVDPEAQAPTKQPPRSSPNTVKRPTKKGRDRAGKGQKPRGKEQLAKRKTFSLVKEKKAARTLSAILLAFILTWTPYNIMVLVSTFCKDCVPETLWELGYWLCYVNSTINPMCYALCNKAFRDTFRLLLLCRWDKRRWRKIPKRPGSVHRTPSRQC
UniProt P28223, sequence (whole entry, looked up): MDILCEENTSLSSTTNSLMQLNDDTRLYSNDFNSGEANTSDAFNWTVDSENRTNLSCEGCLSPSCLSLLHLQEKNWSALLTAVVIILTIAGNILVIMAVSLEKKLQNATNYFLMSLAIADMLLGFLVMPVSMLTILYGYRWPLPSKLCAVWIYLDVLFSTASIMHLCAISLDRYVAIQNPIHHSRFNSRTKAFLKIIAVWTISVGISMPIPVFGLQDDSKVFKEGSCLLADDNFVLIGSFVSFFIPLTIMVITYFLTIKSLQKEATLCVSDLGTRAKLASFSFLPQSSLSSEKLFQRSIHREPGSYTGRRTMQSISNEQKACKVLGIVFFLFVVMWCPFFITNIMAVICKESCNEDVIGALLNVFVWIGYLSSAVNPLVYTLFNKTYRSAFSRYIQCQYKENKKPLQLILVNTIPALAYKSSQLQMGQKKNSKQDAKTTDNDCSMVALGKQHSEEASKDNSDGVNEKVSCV

Study 1 — action: degrader; method: HiBiT; cell line: HEK293; time: 6 h; measurement: remaining protein
SMILES: O=C1CCC(N2Cc3c(ccc4c3OCC43CCN(Cc4ccccc4)CC3)C2=O)C(=O)N1 (stereo not shown)
GSPT1: Eukaryotic peptide chain release factor GTP-binding subunit ERF3A (GSPT1, Homo sapiens, UniProt P15170)
UniProt P15170, sequence (whole entry, looked up): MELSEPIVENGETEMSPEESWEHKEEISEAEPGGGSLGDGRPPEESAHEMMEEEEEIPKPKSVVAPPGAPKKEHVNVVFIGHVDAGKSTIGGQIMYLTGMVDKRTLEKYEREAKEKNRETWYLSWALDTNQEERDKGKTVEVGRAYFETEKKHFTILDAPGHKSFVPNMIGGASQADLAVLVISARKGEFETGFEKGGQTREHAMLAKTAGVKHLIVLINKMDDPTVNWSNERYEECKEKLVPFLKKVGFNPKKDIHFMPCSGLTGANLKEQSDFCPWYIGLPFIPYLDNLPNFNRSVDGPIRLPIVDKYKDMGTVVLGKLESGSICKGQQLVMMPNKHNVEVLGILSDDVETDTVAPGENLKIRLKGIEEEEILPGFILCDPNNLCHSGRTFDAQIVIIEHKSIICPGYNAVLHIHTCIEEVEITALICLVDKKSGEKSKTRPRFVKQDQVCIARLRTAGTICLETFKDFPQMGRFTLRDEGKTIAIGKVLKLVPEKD
SALL4: Sal-like protein 4 (SALL4, Homo sapiens, UniProt Q9UJQ4)
UniProt Q9UJQ4, sequence (whole entry, looked up): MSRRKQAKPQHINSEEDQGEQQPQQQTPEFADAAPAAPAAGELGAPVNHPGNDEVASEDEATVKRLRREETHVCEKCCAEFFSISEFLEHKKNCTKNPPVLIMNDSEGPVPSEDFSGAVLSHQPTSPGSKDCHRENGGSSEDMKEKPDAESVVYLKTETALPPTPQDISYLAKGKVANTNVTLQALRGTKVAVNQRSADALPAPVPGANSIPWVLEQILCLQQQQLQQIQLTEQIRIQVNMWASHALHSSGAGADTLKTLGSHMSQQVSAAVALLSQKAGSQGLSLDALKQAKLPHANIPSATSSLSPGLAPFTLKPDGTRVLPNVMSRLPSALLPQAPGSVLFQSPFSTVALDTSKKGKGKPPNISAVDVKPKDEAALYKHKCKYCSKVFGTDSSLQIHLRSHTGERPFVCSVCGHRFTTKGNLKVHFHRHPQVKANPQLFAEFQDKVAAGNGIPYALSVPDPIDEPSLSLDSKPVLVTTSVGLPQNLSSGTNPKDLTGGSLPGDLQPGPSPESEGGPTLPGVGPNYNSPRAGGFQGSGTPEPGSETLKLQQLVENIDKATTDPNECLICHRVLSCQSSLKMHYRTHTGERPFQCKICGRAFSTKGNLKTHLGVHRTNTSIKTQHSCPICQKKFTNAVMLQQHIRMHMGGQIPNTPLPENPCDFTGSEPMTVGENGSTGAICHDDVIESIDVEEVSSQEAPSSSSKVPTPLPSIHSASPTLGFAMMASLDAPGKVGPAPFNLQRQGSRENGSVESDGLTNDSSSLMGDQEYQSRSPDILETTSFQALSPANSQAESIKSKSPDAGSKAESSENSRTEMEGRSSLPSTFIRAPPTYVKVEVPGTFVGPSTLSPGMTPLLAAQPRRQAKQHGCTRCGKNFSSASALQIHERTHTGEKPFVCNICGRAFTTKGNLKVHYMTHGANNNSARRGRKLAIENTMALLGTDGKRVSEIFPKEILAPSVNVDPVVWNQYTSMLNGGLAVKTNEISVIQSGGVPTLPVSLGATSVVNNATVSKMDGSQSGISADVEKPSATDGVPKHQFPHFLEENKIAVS
Zinc finger protein Aiolos: Zinc finger protein Aiolos (Homo sapiens, UniProt Q9UKT9)
UniProt Q9UKT9, sequence (whole entry, looked up): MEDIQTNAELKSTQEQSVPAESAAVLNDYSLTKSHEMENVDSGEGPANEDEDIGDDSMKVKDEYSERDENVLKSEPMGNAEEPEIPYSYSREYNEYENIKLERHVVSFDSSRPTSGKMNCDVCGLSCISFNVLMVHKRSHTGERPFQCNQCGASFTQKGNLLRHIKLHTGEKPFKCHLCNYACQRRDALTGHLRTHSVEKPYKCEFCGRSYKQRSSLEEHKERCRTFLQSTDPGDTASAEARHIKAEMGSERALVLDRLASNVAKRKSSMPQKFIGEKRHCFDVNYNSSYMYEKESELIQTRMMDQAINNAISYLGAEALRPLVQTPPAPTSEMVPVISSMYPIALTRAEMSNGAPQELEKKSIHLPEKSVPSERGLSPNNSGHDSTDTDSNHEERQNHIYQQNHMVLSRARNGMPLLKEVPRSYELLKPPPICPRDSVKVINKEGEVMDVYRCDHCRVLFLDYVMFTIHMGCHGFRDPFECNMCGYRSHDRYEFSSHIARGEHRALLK
target = GSPT1; concentration = 0.3704 µM; result = 111%
target = Casein kinase I isoform alpha (CSNK1A1, Homo sapiens, UniProt P48729); concentration = 0.0005081 µM; result = 104%
target = DNA-binding protein Ikaros (Homo sapiens, UniProt Q13422); concentration = 1.111 µM; result = 106%
target = SALL4; concentration = 0.004572 µM; result = 90.6%
target = Zinc finger protein Aiolos; concentration = 0.0005081 µM; result = 106%
target = SALL4; concentration = 0.01372 µM; result = 82.4%
target = GSPT1; concentration = 0.04115 µM; result = 109%
target = Zinc finger protein Aiolos; concentration = 0.0001694 µM; result = 92.8%

Study 2 — read-out: binding; method: radioligand binding; concentration: 10 µM; measurement: inhibition
Compound: CC(=O)C1=C(C)N(c2cccc(C(F)(F)F)c2)C(=O)N[C@@H]1c1ccc(C#N)nc1
target = Muscarinic acetylcholine receptor M1 (CHRM1, Homo sapiens, UniProt P11229); result = -4.65%
target = 5-hydroxytryptamine receptor 2C (HTR2C, Homo sapiens, UniProt P28335); result = -2.88%
target = Delta-type opioid receptor (OPRD1, Homo sapiens, UniProt P41143); result = -6.02%
target = 5-hydroxytryptamine receptor 2A (HTR2A, Homo sapiens, UniProt P28223); result = -0.427%

Further values, each from its own experiment
ADRB1: Beta-1 adrenergic receptor (ADRB1, Homo sapiens, UniProt P08588)
UniProt P08588, sequence (whole entry, looked up): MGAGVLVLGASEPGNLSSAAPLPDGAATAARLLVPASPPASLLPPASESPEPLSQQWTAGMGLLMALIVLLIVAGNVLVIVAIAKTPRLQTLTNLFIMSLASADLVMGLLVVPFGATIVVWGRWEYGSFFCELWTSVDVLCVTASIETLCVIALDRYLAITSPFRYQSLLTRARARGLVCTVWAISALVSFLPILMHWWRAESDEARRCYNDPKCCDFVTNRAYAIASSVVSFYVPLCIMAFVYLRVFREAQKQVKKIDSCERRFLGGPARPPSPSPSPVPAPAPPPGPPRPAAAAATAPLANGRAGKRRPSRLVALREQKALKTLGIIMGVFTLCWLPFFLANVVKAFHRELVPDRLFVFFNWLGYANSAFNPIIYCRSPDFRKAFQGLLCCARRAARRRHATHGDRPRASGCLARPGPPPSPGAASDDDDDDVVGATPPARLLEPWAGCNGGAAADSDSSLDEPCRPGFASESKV
SMILES = O=c1c2c(Cl)cccc2nc([C@@H]2CCCN2)n1-c1ccccc1; system = human, microsomes or S9; setting = 2 µM, 0.5 h; measurement = remaining compound; result = > 100%
SMILES = c1cc2c(c(N3CCNCC3)c1)OCCO2; tested on = ADRB1; test = agonist; measurement = EC50; result = 3.55 µM
SMILES = N#Cc1cccc(N2C[C@@H](c3cccc(F)c3F)[C@@H]3[C@H]2C2CCN3CC2)n1; system = human, microsomes or S9; setting = 2 µM, 0.5 h; measurement = remaining compound; result = 36.5%
SMILES = CC(C)[C@@]1(NC(=O)[C@H]2C[C@H]3c4cccc5[nH]cc(c45)C[C@@H]3N(C)C2)O[C@]2(O)[C@H]3CCCN3C(=O)CN2C1=O; tested on = ADRB1; test = agonist; measurement = EC50; result = ≥ 100 µM

A few entries again (study 1):
target = SALL4; concentration = 0.01372 µM; result = 82.4%
target = DNA-binding protein Ikaros (Homo sapiens, UniProt Q13422); concentration = 1.111 µM; result = 106%
target = Casein kinase I isoform alpha (CSNK1A1, Homo sapiens, UniProt P48729); concentration = 0.0005081 µM; result = 104%
